Assay results gathered from unrelated publications.
Lines come from different studies, so protocols differ. ± gives the spread as reported.
Cell line: A549

`CCCC[N+]1=c2cc3c4cc2[O][Mn-2]1(=[C]=O)(=[C]=O)(=[C]=O)[n+]1ccc(cc1)C(=O)Oc1ccccc1OC(=O)c1cc[n+](cc1)[Mn-2](=[C]=O)(=[C]=O)(=[C]=O)([O]3)[N+]=4CCCC` has a viability reduction of 72% (MTT; 50 µM, 48 h, photolysed compound).
`Cc1cc(/C=C/c2ccc(O)c(O)c2)[nH]n1` — result for “cells in G1 phase”: 48.3% (PI staining flow cytometry; 50 µM, 48 h).
The GI50 of `CCN(C(=O)c1cc(F)ccc1Oc1nncnc1N1CCC2(C1)CN([C@H](CCCN(C)CCOC)C(C)C)C2)C(C)C` is reported as over 10 µM (cell growth or viability; 7 days).
With `COc1c(C)c(O)c(C(=O)C=Cc2ccccc2)c(OC)c1C` the selectivity index was 1 (reference: CL over A549).
`COc1cc(/C=C/c2cc(C)n[nH]2)ccc1O`: “cells in S phase” 6.48% (PI staining flow cytometry; 50 µM, 48 h).
`Cc1ccc(C(=O)/C=C/c2ccccc2)s1` gave a growth inhibition of under 0% (SRB; 10 µM).
For `COc1ccccc1[C@H](Cn1c(=O)n(C(C)(C)C(N)=O)c(=O)c2c(C)c(-c3ncco3)sc21)OC1CCOCC1`, the EC50 was 0.07 µM (cell proliferation; 168 h; reference: vehicle).
With `CCCC[N+]1=c2cc3c4cc2[O][Mn-2]1(=[C]=O)(=[C]=O)(=[C]=O)[n+]1ccc(cc1)C(=O)Nc1ccccc1NC(=O)c1cc[n+](cc1)[Mn-2](=[C]=O)(=[C]=O)(=[C]=O)([O]3)[N+]=4CCCC` the viability reduction was 90% (MTT; 50 µM, 48 h, photolysed compound).
For `CCCC(CCC)C(=O)OCc1cn(-c2cc3ccccc3oc2=O)nn1`, the growth was 88.7% (NCI60 single dose; 10 µM).
For `CC(C)(COP(=O)(O)OP(=O)(O)OC[C@H]1O[C@@H](n2cnc3c(N)ncnc32)[C@H](O)[C@@H]1OP(=O)(O)O)[C@@H](O)C(=O)NCCC(=O)NCCSCCC(=O)N[C@@H](CO)C(=O)NCC(=O)N[C@@H](CCCNC(=N)N)C(=O)NCC(=O)N[C@@H](CCCCN)C(=O)NCCCC[C@H](NC(=O)CC[C@@H]1NC(=O)[C@@H](CCCNC(=N)N)NC(=O)[C@H](CCCNC(=N)N)NC(=O)[C@@H](CCCNC(=N)N)NC(=O)[C@H](CCCNC(=N)N)NC(=O)[C@H](Cc2csc3ccccc23)NC(=O)[C@@H](Cc2ccccc2)NC(=O)[C@H](Cc2ccccc2)NC1=O)C(N)=O`, “lowest effective concentration” read 0.1 µM (N-cadherin expression reduction, Western blot; 2 days).
The GI50 of `Cc1c(Cl)c(=O)oc2cc(OCCCCCCSC#N)ccc12` is reported as 14 µM (cell growth or viability, SRB).
`C[C@@H]1O[C@H]2O[C@@H]3C4(O)C(=O)c5cccc(O)c5C(=O)C4(O)O[C@]3(C)[C@]21O` (stereo partly shown) gave an EC50 of 128 µM (cell growth or viability, MTT; 48 h).
`O=C1C(Cl)=C(Cl)C(=O)c2c(O)ccc(O)c21` has a selectivity index of 0.71 (MTT; reference: IC50 MRC-5 over IC50 A549).
The selectivity index of `COc1c(C)c(OC(=O)c2ccccc2)c(C)c(OC(=O)c2ccccc2)c1C(=O)/C=C/c1ccccc1` is reported as 0.82 (reference: CL over A549).
`COc1cc(/C=C/C(=O)CC(C)=O)ccc1O`: “cells in pre-G1 phase” 54.5% (PI staining flow cytometry; 50 µM, 48 h).
`COc1cccc2c1cc1c3c(cc4c(c32)OCO4)[C@@H]2c3c4c5c(cc6c(c5c5cccc(OC)c35)OCO6)CCN4[C@@H]2N1C` (racemic) has an inhibition of under 50% (cytotoxicity, MTT; 50 µg/mL, 48 h).
For `CCNc1cc2c(cc1C)C1(c3cc(C)c(NCC)cc3O2)c2ccccc2C(=O)N1N=Cc1c[c-]c(-c2ccccn2)cc1.Cc1c(C)c(-c2ccc(-c3ccccc3)cc2)[c-](C)c1C.[Cl-].[Ir+3]`, “early apoptotic cells” read 6.57 ± 0.5% (annexin V/PI flow cytometry; 1.0×IC50, 24 h).
For `Nc1ccc[n+]([Pt-2]([Cl])([Cl])[n+]2cccc(N)c2Cl)c1Cl`, the IC25 was 23 µM (cell viability, MTT; 48 h).
With `O=[C]=[Mn-2]12(=[C]=O)(=[C]=O)[O]c3cc4c(cc3=[N+]1CCc1ccccc1)[O][Mn-2](=[C]=O)(=[C]=O)(=[C]=O)([N+]=4CCc1ccccc1)[n+]1ccc(cc1)C(=O)Nc1ccccc1NC(=O)c1cc[n+]2cc1` the viability reduction was 75% (MTT; 50 µM, 48 h, photolysed compound).
For `CC(=O)O[C@H]1C[C@H](O[C@H]2[C@@H](O)C[C@H](O[C@H]3[C@@H](O)C[C@H](O[C@H]4CC[C@@]5(C)[C@H](CC[C@@H]6[C@@H]5CC[C@]5(C)[C@@H](C7=CC(=O)OC7)CC[C@]65O)C4)O[C@@H]3C)O[C@@H]2C)O[C@H](C)[C@H]1O[C@@H]1O[C@H](CO)[C@@H](O[C@@H]2O[C@H](CO)[C@@H](O)[C@H](O)[C@H]2O)[C@H](O)[C@H]1O`, the inhibition was 73.5% (cell growth or viability, MTT; 5 µM, 24 h).
The viability reduction of `CCCC[N+]1=c2cc3c4cc2[O][Mn-2]1(=[C]=O)(=[C]=O)(=[C]=O)[n+]1ccc(cc1)C(=O)OCCOCCOC(=O)c1cc[n+](cc1)[Mn-2](=[C]=O)(=[C]=O)(=[C]=O)([O]3)[N+]=4CCCC` is reported as 69% (MTT; 50 µM, 48 h, photolysed compound).
`O=C1C(Br)=C(Br)C(=O)c2ccccc21` gave a selectivity index of 1.43 (MTT; reference: IC50 MRC-5 over IC50 A549).
With `Cc1cc(=O)oc2cc(OCCCCCCSC#N)ccc12` the GI50 was 3.5 µM (cell growth or viability, SRB).
The cell-bound activity of `CCCC[C@H]1C(=O)N(C)[C@@H](CCCC)C(=O)N[C@@H](CCCCNC(=S)Nc2ccc(CN3CCN(CC(=O)O)CCN(CC(=O)O)CC3)cc2)C(=O)N[C@H](C(=O)NCC(N)=O)CSCC(=O)N[C@@H](Cc2ccc(O)cc2)C(=O)N(C)[C@@H](C)C(=O)N[C@@H](CC(N)=O)C(=O)N2CCC[C@H]2C(=O)N[C@@H](Cc2c[nH]cn2)C(=O)N[C@@H](CCC(=O)O)C(=O)N2C[C@H](O)C[C@H]2C(=O)N[C@@H](Cc2c[nH]c3ccccc23)C(=O)N[C@@H](CO)C(=O)N[C@@H](Cc2cn(CC(=O)O)c3ccccc23)C(=O)N1C` [fluorine-18 labelled] is reported as 0.62 ± 0.11% (binding; concentration not given, 30 min, 4 °C; reference: added activity).
The fold change of `COC(=O)c1cc(NC2=NC(=O)C(=Cc3ccc(N(C)C)cc3)S2)ccc1OC(C)=O` is reported as 0.0594 (refers to: CHEK2 mRNA; 2.93 µM (IC50), 24 h; reference: DMSO).
